Results of several laboratories.
Parts stem from different laboratories: compare values within a part only. Positions count from the first letter of the parent shown.

Sample 1
Substance: PhoQ, residues 284 288 289 292 302 303 NLSRDF
Method: Sort-seq
Refers to: YFP reporter
Sample: E. coli
Setting: PhoQ-PhoP variant library
With: 10 µM Mg2+
Relative to: high Mg2+ state
Direction: higher = stronger signaling
target | fold induction
PhoP, residues 12 14 15 18 19 ICWRQ (Escherichia coli, UniProt P23836) | 1.9
PhoP, residues 12 14 15 18 19 VHTVL (Escherichia coli, UniProt P23836) | 22.3
PhoP, residues 12 14 15 18 19 TQCLL (Escherichia coli, UniProt P23836) | 2.76

Sample 2
Target: CCND1, cyclin fold, Cln2 fusion (human)
Method: yeast growth competition, sequencing
Sample: yeast
Setting: weak parent motif
Relative to: not given
Direction: higher = stronger binding
Starting sequence: RB1 docking peptide (human); PKPLKKLRFDIEG; partner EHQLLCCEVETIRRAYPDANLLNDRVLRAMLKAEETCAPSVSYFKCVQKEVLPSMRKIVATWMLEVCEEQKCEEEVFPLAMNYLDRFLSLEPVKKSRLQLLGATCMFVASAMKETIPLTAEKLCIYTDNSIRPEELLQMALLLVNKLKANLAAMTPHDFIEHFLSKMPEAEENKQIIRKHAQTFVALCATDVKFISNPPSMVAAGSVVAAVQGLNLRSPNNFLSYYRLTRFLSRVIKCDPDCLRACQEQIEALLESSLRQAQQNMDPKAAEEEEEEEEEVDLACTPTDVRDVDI
Variant | normalised enrichment score
F9N | 0.734
D10K | 0.419
G13Y | -1.03
K5P | 0.76
K2L | 0.474
K2F | 0.118
L7D | -0.856
L4S | 0.459
R8D | 0.451
E12S | -0.554
K6Y | -0.601
L4D | 0.465
K6L | 0.523
E12Q | -0.2
P1F | -0.0412
L7S | -0.248
K6Q | 0.0336
F9V | 0.336
D10V | 0.161

Sample 3
Target: Prothrombin, mature alpha-thrombin (F2, Homo sapiens, UniProt P00734)
Method: aptamer microarray, sandwich
Molecule type: DNA with 2'F-ANA
Sample: in vitro
Tested at: 200 nM
Setting: whole 15-mer aptamer, many near background
With: Cy3 exosite-II aptamer, 400 nM
Direction: higher = stronger binding
Oligonucleotide: GGTTGGTGTGGTTGG
Modification | mean fluorescence intensity
2'F-ANA at 3 4 8 9 11 12 13 15 | 663 a.u.
2'F-ANA at 2 3 4 5 6 11 12 13 14 | 53.3 a.u.
2'F-ANA at 2 6 9 13 15 | 242 a.u.
2'F-ANA at 2 4 10 13 | 76.1 a.u.
2'F-ANA at 1 2 4 9 11 12 13 15 | 154 a.u.
2'F-ANA at 1 2 3 4 5 7 8 9 10 12 13 15 | 62.1 a.u.
2'F-ANA at 1 2 3 7 10 12 14 | 66.7 a.u.
2'F-ANA at 3 4 7 8 9 10 12 15 | 369 a.u.
2'F-ANA at 2 3 4 6 8 9 10 12 14 15 | 156 a.u.
2'F-ANA at 2 5 6 7 14 | 47.6 a.u.
2'F-ANA at 1 4 7 8 9 12 14 15 | 73.9 a.u.
2'F-ANA at 3 4 5 6 7 8 9 10 12 13 14 | 45.1 a.u.
2'F-ANA at 3 4 7 8 11 12 14 | 399 a.u.
2'F-ANA at 4 7 9 10 12 13 15 | 92.7 a.u.
2'F-ANA at 1 3 5 7 9 11 12 13 14 15 | 46.7 a.u.
2'F-ANA at 1 2 3 4 7 9 14 15 | 66.9 a.u.
2'F-ANA at 1 4 7 8 11 14 | 59.2 a.u.
2'F-ANA at 1 6 7 11 13 | 131 a.u.
2'F-ANA at 3 6 7 10 11 12 14 | 407 a.u.
2'F-ANA at 4 5 10 11 12 | 52 a.u.
2'F-ANA at 5 6 7 8 9 | 86 a.u.
2'F-ANA at 1 2 4 5 8 10 12 14 | 45.4 a.u.
2'F-ANA at 3 4 5 6 9 11 15 | 75.6 a.u.
2'F-ANA at 1 4 5 9 12 14 15 | 49.3 a.u.

Sample 4
Target: ABI1, truncated, D143A, DHFR fusion (Arabidopsis thaliana)
Method: DHFR PCA, deep sequencing
Sample: yeast
Setting: methotrexate growth selection, single substitutions
With: (+)-ABA 710 µM
Relative to: wild-type fitted maximum
Direction: higher = stronger binding
Starting sequence: PYL1, truncated, DHFR fusion (Arabidopsis thaliana); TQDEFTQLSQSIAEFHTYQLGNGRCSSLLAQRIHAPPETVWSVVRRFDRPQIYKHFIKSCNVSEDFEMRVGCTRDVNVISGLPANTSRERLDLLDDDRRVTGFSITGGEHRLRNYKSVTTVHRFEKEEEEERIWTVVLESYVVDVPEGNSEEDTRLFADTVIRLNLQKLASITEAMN
Variant | relative binding score [%]
V43N | 77
F47S | -2.75
R46D | 88.2
W134T | 112
V136Y | 97.1
W134S | 114
L82Y | 40.9
W41H | 0.722
C25P | 55
S59T | 99
P146T | 76.8
D97I | 113
D159P | -0.224
I172N | 78.3
C25G | 67.9
R123T | 97.7
